Results pooled from the literature.
Parts stem from different laboratories: compare values within a part only. Changes are numbered by the printed parent chain.

Block 1
Target: BATF, bZIP domain (human)
Method: DHFR protein complementation
Sample: yeast
Notes: single substitutions, most at no-binding floor
Relative to: wild-type JUN-FOS pair
Reading: higher = stronger binding
Starting sequence: JUN, bZIP domain (human); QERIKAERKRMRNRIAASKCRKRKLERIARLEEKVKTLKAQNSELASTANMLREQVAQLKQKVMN; partner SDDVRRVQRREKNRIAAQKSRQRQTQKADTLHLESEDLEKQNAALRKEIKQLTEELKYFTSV
`K36V` has a binding fitness of -0.0208 natural log.
With `K34W` the binding fitness was 0.16 natural log.
The binding fitness of `L52T` is reported as -1.22 natural log.
The binding fitness of `V35H` is reported as -0.311 natural log.
`A57Y` has a binding fitness of -0.0262 natural log.
For `E54I`, the binding fitness was -0.0711 natural log.
With `A40W` the binding fitness was -0.199 natural log.
`V35Y` has a binding fitness of -0.132 natural log.
`K39Y` gave a binding fitness of -0.253 natural log.
`Q41K` has a binding fitness of -0.135 natural log.
For `A40Q`, the binding fitness was 0.112 natural log.

Block 2
Target: CCND3, cyclin fold, Cln2 fusion (human)
Method: yeast growth competition, sequencing
Sample: yeast
Notes: weak parent motif
Relative to: not given
Reading: higher = stronger binding
Starting sequence: EXO1 docking peptide (human); KPECGRVQRAIFQ; partner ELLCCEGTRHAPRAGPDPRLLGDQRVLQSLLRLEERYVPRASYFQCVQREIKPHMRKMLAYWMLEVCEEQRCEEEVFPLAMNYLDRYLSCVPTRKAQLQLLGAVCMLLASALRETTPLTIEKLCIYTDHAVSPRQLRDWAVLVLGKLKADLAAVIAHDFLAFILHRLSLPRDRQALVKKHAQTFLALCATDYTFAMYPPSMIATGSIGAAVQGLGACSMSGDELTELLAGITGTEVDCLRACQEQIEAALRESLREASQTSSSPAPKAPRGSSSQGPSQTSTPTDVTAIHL
`C4A` — result for “normalised enrichment score”: 0.00204.
`V7A` — result for “normalised enrichment score”: 0.296.
`Q8A` — result for “normalised enrichment score”: 0.144.
`I11A`: “normalised enrichment score” -0.0608.
For `K1A`, “normalised enrichment score” read -0.0761.
`Q13A`: “normalised enrichment score” 0.153.

Block 3
Target: Fragile X messenger ribonucleoprotein 1, C-terminal low-complexity region (Fmr1, Mus musculus, UniProt P35922)
Method: RNA Bind-n-Seq
Form: RNA
Sample: in vitro
Tested at: 200 nM
Notes: whole 134-nt RNA, ends assumed
Together with: 150 mM LiCl
Relative to: input library
Reading: higher = stronger binding
Library: 7-deaza-guanosine replaces G
The log2 enrichment of `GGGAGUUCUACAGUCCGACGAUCUUUUCUCACGAUGCACCUCCCCCUGGCACUAAGAAAAAGCACUUAUCCAUUGAGCAGCUGAAUGCUCGUCGCAGGAAAGUAUGGCUCAGCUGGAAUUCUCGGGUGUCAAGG` is reported as -0.0323.
For `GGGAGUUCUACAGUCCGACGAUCACCAUGCAGGUGGGCAUCAAAGGGAAGUGGGGCAAGGGGGGGAUAGGGAGGGGGGUAACACUUUGGGAACAGGUGGUCCCAGGUCGUUUCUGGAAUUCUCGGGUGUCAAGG`, the log2 enrichment was 1.22.
The log2 enrichment of `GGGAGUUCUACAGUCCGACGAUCUAACUUUAGAGGAGGAUCUGAUGGAUAUGGCAGUGGACGUGGAUUUGGGGAUGGCUAUAAUGGGUAUGGAGGAGGACCUGUAGGUGGCAAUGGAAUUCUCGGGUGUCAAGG` is reported as 0.242.
`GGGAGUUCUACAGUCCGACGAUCUCCUGUGCUACACAUCGUAUGUACCGAAUCGGGGAGGGGAAAAAGGGGUUUUUUUGGGGAAAGUAUUAUGUUACGCCGUUCGGAUCUGCAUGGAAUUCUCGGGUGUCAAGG` has a log2 enrichment of -0.00188.
`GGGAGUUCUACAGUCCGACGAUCAGUCCUGUGCUACACAUCGUAUGUACCGAAUCGGGUUUUUGGGUUUUUGGUUUUUGGAAAGUAUUAUGUUACGCCGUUCGGAUCUGCACUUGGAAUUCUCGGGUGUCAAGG` has a log2 enrichment of -1.93.
With `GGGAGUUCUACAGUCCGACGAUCUAACUUUAGAGGAGGAUCUGAUGGAUAUGGCACUGGACGUGGAUUUGGGGAUGGCUAUAAUGGGUAUGGAGGAGGACCUGGAGGUGGCAAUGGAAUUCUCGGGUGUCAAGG` the log2 enrichment was 0.445.
`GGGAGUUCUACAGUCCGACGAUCUAACUUUAGAGGAGGAUCUGAUGGAUAUGGCAGUGGACGUGGAUUUGGGGAUGGCUAUAAUGGGUAUGGACGAGGACCUGGAGGUGGCAAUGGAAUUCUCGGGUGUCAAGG` has a log2 enrichment of 0.0965.
With `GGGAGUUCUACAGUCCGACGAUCUCCUGUGCUACACAUCGUAUGUACCGAAUCGGGUUUUUUUGGUUUUUUUGGUUUUUUUGGAAAGUAUUAUGUUACGCCGUUCGGAUCUGCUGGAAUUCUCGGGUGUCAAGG` the log2 enrichment was -0.374.

Block 4
Target: RNA binding protein fox-1 homolog 2, RRM domain, GST-SBP tag (RBFOX2, Homo sapiens, UniProt O43251-10, residues 100-194)
Method: RNA Bind-n-Seq
Form: RNA
Sample: in vitro
Tested at: 365 nM
Notes: natural RNA segment, single round, ends assumed
Relative to: no-protein control
Reading: higher = stronger binding
Residues (chain): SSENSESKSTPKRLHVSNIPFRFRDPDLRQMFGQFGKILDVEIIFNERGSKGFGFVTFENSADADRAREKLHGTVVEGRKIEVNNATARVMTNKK
`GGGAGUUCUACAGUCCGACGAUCUGCCUUGGGCCUUGCUGCUGCUGCACCCAACUACUGAGCUGAGACCACUGAGUACCAGGGGCUGGGCUCCCUGAUGACACCCACCCUGUGCCAUCACCAUAACCUCUGGGUGGAAUUCUCGGGUGCCAA`: “RBNS enrichment (R)” 0.724.
For `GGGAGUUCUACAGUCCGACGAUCUGCAGAUGAUAAAACUAAUUUUGAACUUUUUAAUUUAUAUAAAUUAUUUUAUAUCACUUACUUAUUUCACUUUAUUUUGCUUUGUGCUCAUUGAUAUAUAUUAGCUGUACUGGAAUUCUCGGGUGCCAA`, “RBNS enrichment (R)” read 0.83.
`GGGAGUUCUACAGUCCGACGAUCUGCAGUCACUGGGCAGCCACAUAGCAGCUGCAGGUCCCAGGAGGGCCUGAGGUCAAAGCUGUGGAAGGCCCUCUUGGUAUCAGGGCUCUCUCCCCAUGGCCUCUUCCCCAUGGAAUUCUCGGGUGCCAA` — result for “RBNS enrichment (R)”: 0.272.
`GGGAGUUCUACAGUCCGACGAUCCCCACCCUCUCUGCAGCAAGGGGGCCCUCCUUGUCACUGACAUUUGCUAAACCGUGGCAAUUCAUCAACGGGAAACAUUAGUGAAUUGAAGGCAUUCCUUGUUUUUAACUUGGAAUUCUCGGGUGCCAA`: “RBNS enrichment (R)” 0.365.
For `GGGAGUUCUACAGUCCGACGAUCGCCAUGCAGAGCCCUGGCCGCUGGAGACUCUUAAAGCCCCCACAGCCCUCCAGGUCCUCCAGCUCUGUCAGAUGGAGGGCUCUCGGGCCUAGAUCCCACUGGUAGGCCUCUGGAAUUCUCGGGUGCCAA`, “RBNS enrichment (R)” read 0.397.
For `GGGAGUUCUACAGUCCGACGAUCCUGAUAAAAACACAGCUCCUUUAUUAUGCUGCUUUUCUUGUUCACUUUACACACUAAGUAAACACUUAUUGUCAGGUGCCUAGUCUUGAGUGAAUUGUUAGAUGUGCACUUGGAAUUCUCGGGUGCCAA`, “RBNS enrichment (R)” read 0.647.
`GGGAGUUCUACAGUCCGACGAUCAAGACCCUACAAUAAGAUUGUUUUAUCUGUACAUUUUUUCAGAUAUUUAACUGUAUAAAAAUGUUCAUUUUACACAAUAUUUAAUUAAAGUAUUUCUUGUCUGUGAAUUUUGGAAUUCUCGGGUGCCAA`: “RBNS enrichment (R)” 0.536.
`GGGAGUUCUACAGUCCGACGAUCAAUGCAUUCUUCUGUUGAGGAGUAACAGGUCUCAAUUCUUUUCAAUUAAUUUUAAAAGUCAAUCACUAAGAGCAUCGGCUUUGGGCCCUGAUGGGCAGGCAUUUCCCUGGUGGAAUUCUCGGGUGCCAA`: “RBNS enrichment (R)” 0.622.

Block 5
Target: ABI1, truncated, D143A, DHFR fusion (Arabidopsis thaliana)
Method: DHFR PCA, deep sequencing
Sample: yeast
Notes: methotrexate growth selection, single substitutions
Together with: (+)-ABA 200 µM
Relative to: wild-type fitted maximum
Reading: higher = stronger binding
Starting sequence: PYL1, truncated, DHFR fusion (Arabidopsis thaliana); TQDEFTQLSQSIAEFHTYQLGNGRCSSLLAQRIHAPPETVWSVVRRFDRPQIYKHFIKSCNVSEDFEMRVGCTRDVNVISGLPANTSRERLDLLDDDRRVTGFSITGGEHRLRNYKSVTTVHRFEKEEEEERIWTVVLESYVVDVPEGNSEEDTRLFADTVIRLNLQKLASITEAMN
For `E127C`, “relative binding score” read 99.7%.
`F15P`: “relative binding score” 6.04%.
For `D97R`, “relative binding score” read 98.6%.
Under “relative binding score”, `M68I` is recorded as 104%.
Under “relative binding score”, `D3Y` is recorded as 91%.
`V44W` — result for “relative binding score”: -8.26%.
For `C72E`, “relative binding score” read 101%.
`F47M` — result for “relative binding score”: 3.12%.
Under “relative binding score”, `D95G` is recorded as 9.39%.
For `R123K`, “relative binding score” read 112%.
`R98T` — result for “relative binding score”: 84.1%.
`P36M`: “relative binding score” 87.2%.

Further values, each from its own experiment
For `PhoQ, residues 284 288 289 292 302 303 GANMMA`, the fold induction was 6.4 (PhoP, residues 12 14 15 18 19 VQALL (Escherichia coli, UniProt P23836); Sort-seq, measured: YFP reporter; E. coli; PhoQ-PhoP variant library, together with: 10 µM Mg2+; relative to: high Mg2+ state, higher = stronger signaling).
